Published values pooled from the literature.
Every numbered part comes from another study and shows a few of its results, in no order.

Series 1 — method: RNA Bind-n-Seq; molecule type: RNA; matrix: in vitro; tested at: not given; relative to: input RNA pool; direction: higher = stronger binding
Target: RING finger protein unkempt homolog, zinc fingers 1-6, GST-SBP tag (UNK, Homo sapiens, UniProt Q9C0B0, residues 30-357)
Notes: RNA with constant flanks, human and mouse sites, ends assumed
Construct (chain): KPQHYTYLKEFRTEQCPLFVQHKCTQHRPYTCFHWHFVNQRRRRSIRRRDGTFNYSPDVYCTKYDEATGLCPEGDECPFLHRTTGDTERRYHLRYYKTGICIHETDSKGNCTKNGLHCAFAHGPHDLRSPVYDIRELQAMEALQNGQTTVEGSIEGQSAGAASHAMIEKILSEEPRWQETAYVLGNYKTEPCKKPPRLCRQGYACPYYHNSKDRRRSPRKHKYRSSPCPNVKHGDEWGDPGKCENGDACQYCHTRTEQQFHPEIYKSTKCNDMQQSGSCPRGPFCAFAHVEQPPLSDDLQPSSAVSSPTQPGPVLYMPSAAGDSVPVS
Sequence | bound/input enrichment [ratio]
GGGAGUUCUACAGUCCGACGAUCUGUAUGUUCUUCAAGAAUUACGAGAAAGCCAAAGUUAAACUUUUGGAGUUCCAGAAAAGCCUUGAAACACUUGACACAGUGGCCGCAAGGGUCCUUCCUAUCAUACCUGCCUCGUGGAUGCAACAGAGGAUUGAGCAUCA | 0.148
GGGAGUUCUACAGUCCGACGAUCGGAUAUUCUAAGAUCCAGAUAUACAUAACUGAUCCAGACUUUAAGGGUUUUAUACGCAUCAGCUGUUGCCAGUACUGUAAAAUAGAAUUUCACAUGAAUUGCUGGAAGAAGUUAAAAACUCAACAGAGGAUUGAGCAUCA | 0.273
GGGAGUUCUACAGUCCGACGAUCGAUGUGUGUGUGAUGGUUAUUUUGUUUUGUUUUGUUUUGUUUUGUGACAGGGUCUCUCUCCAUAGACAUAGUCCUGGCUAUUCUAGAGCUCACUGUGUAGACCAGGCUGGCCUUGAACAGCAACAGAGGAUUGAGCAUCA | 1.78
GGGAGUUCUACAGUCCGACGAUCUAUGGUCUGGUCUUCGCUGGUGGAGCCAGUGGCUUGCAGAUUUUUCCUACUAAAAAUCUUCUUAUUCAAAAUAAACCCGGAGAUGAUCCCAACAAAAUAGUUGAUAAAGUCCAAGGCUUGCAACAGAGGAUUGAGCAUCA | 0.361
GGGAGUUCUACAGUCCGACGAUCUCUAAUAUUAGCCUUGUCUUUGAUUUUAUGGAAACUGAUCUAGAGGUUAUAAUAAAGGAUAAUAGUCUUGUGCUGACACCAUCACACAUCAAAGCCUACAUGUUGAUGACUCUUCAAGGACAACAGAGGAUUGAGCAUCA | 0.481
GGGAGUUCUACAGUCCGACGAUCGUUCUUGACCCAUUGAUUGUAUCUGCUGGAAGAAGUCAUCUGGGCCUGUUGGGUUGGUAUCAGAUCAGGGGAUUAUGCAUCCAGCCCCUGGCCCCUUUAAUCUAUUUGCCUCUUUUUAAACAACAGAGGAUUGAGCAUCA | 0.326
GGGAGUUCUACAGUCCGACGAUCUGUCUUUAUUUGACGAAAACGAGCUGUUGCGCAGCCAUUGGUACCUGUAUUGGGGAAACAUAGCAUACAAGCAAGAAGCUUACAGCCUCAGUGGCGAAAAUUUUUUCAUGUCAGAGACCGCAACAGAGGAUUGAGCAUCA | 0.216
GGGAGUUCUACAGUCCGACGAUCCAUGAAACAUGGGAUGGUGGGUGGCAGGGAGGGAAGGCUAGACCAGCCAUCUUGUCUUUUCUCCCACCAGAAUGUGGACGAUGCAAUGACGGUGCUCCCGAAACUGGCCACAGGUCUGGACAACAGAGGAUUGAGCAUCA | 0.0565
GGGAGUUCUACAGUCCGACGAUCCCCCCAAAUCAUUGGCUUUCACAUCCAGUAUUUUUGGCUCAUGGCAACAGGUUUUUAAACUUUAUUUCAUUAAAUAUUUUCCAUUCUUGCAUUCAGAGCAACAAACAGCUAUUUUUGAGGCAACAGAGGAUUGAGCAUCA | 0.799
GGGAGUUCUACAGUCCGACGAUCCCACCUCCACCGCCACCUCCACCACCUCCACCACCACCACCACAAUCCCUGGAAUUAUUAUUACUCCCAGUUCCUAAGGGAAGAGUUUCUAAACCCUCCAAUUCAGCCUCAGAAGAGGAACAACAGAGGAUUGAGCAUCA | 0.661
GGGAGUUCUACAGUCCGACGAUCCUUUGAGGUAAGAAAAAUGCAACCUGGACUGAUGGAUGUGUGACCCCUUGUCACCAAUGGACUAGCCUGUGACAGCCACAUCUCCAGCAUCACAACGCAGGGUCACUGCCCCAUGGUUCUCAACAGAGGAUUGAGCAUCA | 0.104

Series 2 — method: protein-binding microarray; molecule type: double-stranded DNA, one strand shown; matrix: in vitro; tested at: 940 nM top; notes: 60-bp whole probe; with: salmon DNA 0.4 mg/ml; relative to: random background probes; direction: higher = stronger binding; shared flanks, not repeated: GCCTAGCAC … GTCTTGATTCGCTTGACGCTGCTG
Target: Interferon regulatory factor 5, full length, phosphomimetic (IRF5, Homo sapiens, UniProt Q13568-2, residues 1-514, S451D/S453D/S456D/S462D)
Sequence | fitted relative affinity [z-score]
GACGATATCAGGTATCGAGACGTGCTA | 1.07
GACTATTTCGGGTATCGAGACGTGCTA | 1.19
GCAGGTCTGGACCCAGACTCGTGCTAG | -0.477
TTCGTTTTGTGTCTGGGCATGTGCTAG | 0.245
GACGAACGGAGACTGGAGACGTGCTAG | -0.518
CATTTTATGGTATTTTTTTCGTGCTAG | 0.653
TTAGGACTGCTACTGCCTTAGTGCTAG | -0.213
TTAGGTCTAGGTTTCGGTTAGTGCTAG | 7.22
TCATGAATGCCCTCTAACACTGTGCTA | 0.391
GACGATATCAGTCTCGAAACGTGCTAG | 1.17
TTAGGTTTCGGGTATCGGCTAGTGCTA | 11.3
TTAGGACTGGGGTAGCGGTTAGTGCTA | -0.0295
ATAGGTTCCGGTTTCGGTTAGTGCTAG | 8.59
GACGGTATCGGTAGCGGGACGTGCTAG | 7.66
TTATGTCTCGGACTGGGTTAGTGCTAG | 0.945
TTAGGACTGGGGTATCAGTTAGTGCTA | 0.242
GACGCTATCGACACTGGGGACGTGCTA | 0.395
GATAATTTTTTTCTAAGTAAGTGCTAG | 1.2
TCATAAACCATTTTGGTACTGTGCTAG | -0.46
GACGCACTGCTACTGCTGACGTGCTAG | -0.259
GACGGTTTCGGGACAGGGGACGTGCTA | 7.34
TTAGGTATCGACTATCGGTGAGTGCTA | 5.94
TGATCCAAAAAGTGTGAGAAGTGCTAG | -0.358
GACGATTTCAGACTTGAGACGTGCTAG | -0.374
TCAGGACTGGGGACTGGGTTAGTGCTA | -0.35

Series 3 — method: protein binding microarray; molecule type: double-stranded DNA, one strand shown; matrix: in vitro; tested at: not given; relative to: not given; direction: higher = stronger binding
Target: Histone acetyltransferase KAT6A, both winged helices, GST fusion (KAT6A, Homo sapiens, UniProt Q92794, residues 1-181)
Notes: 8-mer, flanks averaged, mean of 2 arrays, mostly near background
Target sequence (chain): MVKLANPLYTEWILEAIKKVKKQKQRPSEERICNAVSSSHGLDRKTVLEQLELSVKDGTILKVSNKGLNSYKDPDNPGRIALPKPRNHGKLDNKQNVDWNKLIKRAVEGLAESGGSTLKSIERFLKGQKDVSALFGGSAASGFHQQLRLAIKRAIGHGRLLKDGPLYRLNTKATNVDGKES
Sequence | E-score
GGACTAAA | 0.0502
CACCCGAC | 0.122
CAATCACG | 0.179
AAAGAGCA | -0.076
CACTAACA | -0.124
AGGAATGA | -0.0781
GGTAGCAA | -0.0958
AAGTTTAG | -0.16
GTCCACAC | 0.049
CCACACGG | 0.174
AGTGCCAT | -0.144
CCGGTGAC | 0.13
AGAGTACA | -0.0753
ACCAAGCT | -0.297
ACCCACTG | -0.0669
CAGCACAA | -0.0758
CCGGATTA | 0.0465
ACTAATGA | -0.104
ATTTACTC | 0.00181
CTTATAGA | -0.0275
CTACCCTC | -0.138
CAGGCGCG | 0.234
AGGCTAGC | -0.147
GACCTTCC | 0.0404
CCGGAACG | 0.202

Series 4 — method: RNA Bind-n-Seq; molecule type: RNA; matrix: in vitro; tested at: 365 nM; relative to: no-protein control; direction: higher = stronger binding
Target: RNA binding protein fox-1 homolog 2, RRM domain, GST-SBP tag (RBFOX2, Homo sapiens, UniProt O43251-10, residues 100-194)
Notes: natural RNA segment, single round, ends assumed
Target sequence (chain): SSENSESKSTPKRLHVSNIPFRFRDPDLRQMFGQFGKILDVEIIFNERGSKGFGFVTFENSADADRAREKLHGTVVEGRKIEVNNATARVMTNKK
Sequence | RBNS enrichment (R)
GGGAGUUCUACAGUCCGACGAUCGCAAAAUGCUCAACUGUCAGCCCCGCAAGUAGACAGCUGUGUGCCGGACACCACCUAGCUGCAGCAAACAUCUGGCCAGCAGCAGCUUUCAAUAAAUCUACAGCAAACAAUGGAAUUCUCGGGUGCCAA | 0.336
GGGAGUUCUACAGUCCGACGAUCACUGCACGGCUGCUGAUUGGUCUUCUAUCUCCUGAAGUUUACUCAUGUUCUUAAAACUCCUGGUGACUUUGUUCUUUUGCCAACGUAGAAAGCACAGUGGACGGGUUGUGUGGAAUUCUCGGGUGCCAA | 0.735
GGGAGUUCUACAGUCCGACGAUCUUUUCUCUCCUCCCCAGAGGCCCCAUGGGAUGCCGCGUGCUGUUGGGUUUGGGCUAAGAUCUAAGACCCAGCAGAUAGGAGACAGCAGGUACCACCCACACAGCACAGCUUGGAAUUCUCGGGUGCCAA | 0.478
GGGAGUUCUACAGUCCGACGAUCUGUCUGGAAAAGCACUUUACAGAUGAGAUUCCCUCUCCUCCCCCACCUUCAAGCACCCUGUUCCCUCUUUCUUUCUUUUGUGUUGGAUUUGUUUAAAAACCAAAUAAGCAUGGAAUUCUCGGGUGCCAA | 0.961
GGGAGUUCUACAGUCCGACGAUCGAAUAAUUUAAUCUGUACAAUAAAUACAGUAUAGGCUGAUCAAGGAGCAUUUUGUAAGCUGCCCUCACACUAUAUAAUGGACAAUCUUUAUUCUGUUCUUUAGUAUAACAUGGAAUUCUCGGGUGCCAA | 0.608
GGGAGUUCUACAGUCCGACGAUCCACCGACUCCACCUCAGAGCAUGGUGCCUCCGUUUUCCCUUCCUAGUGACCCCAGGUUUAGCAUCGUCCUAUACUGUUCCCUCCACUCCUCCAUGACCCUCUGAGUGAUGUGGAAUUCUCGGGUGCCAA | 0.596
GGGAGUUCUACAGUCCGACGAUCUGCUAUUUUCAUUAUACACUAUGAGGUAAAAUGUAAUAACAAAAGAGAGAGAAGUACCACUGUGGCUAGAUAUAUACACACACAUAUAUAUAUGGAUGGAUGUAAUAUAUUGGAAUUCUCGGGUGCCAA | 0.374
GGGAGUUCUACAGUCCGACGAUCAUCCAGUUCCUCUUGGUCUUCCUGCUUGGGAACGAGGAAGAUAAGUCUUUUCCUAUCCGAGAUUCUAGAGGAGGAAGACCUUGGGCUCCGACUACUUCAAAAUGAUCUGAUGGAAUUCUCGGGUGCCAA | 0.331
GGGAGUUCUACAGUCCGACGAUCAGAAGUGGGGGCAGCCCAGGCGGUUUCACGCCCCACACUUUGUACAGACCGAGAGGCCAGUUGAUCUGCUCUGUUUUAUACUAGUGACAAUAAAGAUUAUUUUUUGAUACUGGAAUUCUCGGGUGCCAA | 0.46
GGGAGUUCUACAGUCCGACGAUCUGUUGUCUUUCCUGUCCCAACCUACACGGGUCUCUGUAACAUUCCACUAUUCAAACUUCCAAGGAGUCCCACUCUCAGGGGGCGGGGCACAGAGCUAAAAUCUCCAAAAGUGGAAUUCUCGGGUGCCAA | 0.388
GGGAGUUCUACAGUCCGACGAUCUCAUGAUUGUAAAGGGAAUAUAUAACCACACAGAUUUUAUAGCUGCUUCCUGGUUAUCACUUACAUUCCGUAAGGAGCUGUUCCUUAGGACCGGUUGGAAGUAGAAGAAAUGGAAUUCUCGGGUGCCAA | 0.5
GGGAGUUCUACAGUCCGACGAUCUUUCUCCUGGAGCAUGUGCAGAGAGUUUGGCAACGUUCGCUCUCUUGACCAGACCCCUUCUCCCUGACCUGGCUCUUCCAGCCAGGGCACGAGCCCUCCUUCUAUACCUGUGGAAUUCUCGGGUGCCAA | 8.55
